{"data": "Assay results from different studies", "note": "Every numbered part comes from another study and shows a few of its results, in no order."}
{"data": "Block 1", "target": "Hepatocyte nuclear factor 3-alpha (Foxa1, Mus musculus, UniProt P35582, residues 1-468, full length assumed)", "technique": "EMSA with sequencing", "form": "double-stranded DNA, one strand shown", "sample": "in vitro", "tested at": "10 and 20 nM", "setting": "whole designed probe, mean of two concentrations, ends assumed", "reference": "negative control set to 0", "direction": "higher = stronger binding", "shared flanks, not repeated": "GTGAGCGGTGCCCATTGATGGGGAAC … TTTCACTGGGATCGTGGGGAC", "Construct (chain)": "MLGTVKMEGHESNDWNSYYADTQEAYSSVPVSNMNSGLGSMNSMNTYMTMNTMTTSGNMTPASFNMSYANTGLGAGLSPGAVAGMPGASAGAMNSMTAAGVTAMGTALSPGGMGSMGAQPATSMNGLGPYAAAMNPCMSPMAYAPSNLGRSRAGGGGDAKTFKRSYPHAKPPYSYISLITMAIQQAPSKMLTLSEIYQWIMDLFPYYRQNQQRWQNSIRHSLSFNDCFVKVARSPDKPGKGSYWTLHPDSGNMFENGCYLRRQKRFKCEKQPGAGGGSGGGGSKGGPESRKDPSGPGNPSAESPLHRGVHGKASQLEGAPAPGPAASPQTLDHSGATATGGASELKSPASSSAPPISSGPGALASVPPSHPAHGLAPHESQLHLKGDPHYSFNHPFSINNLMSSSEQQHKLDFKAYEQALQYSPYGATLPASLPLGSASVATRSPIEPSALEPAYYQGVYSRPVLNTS"}
{"Oligonucleotide": "ATCTTCCCCCTCTTCCTTGCCCCACCAGCTCACCTTCCCGGGTTATTTGCAGATAGGAAAATAAATAAAGCCGGCATTCGTTAACCCTCTTCTGGCGCAAACTGCTGTTTGCTCTGGTCCGATGAATCATGTTTGGCGACGCCAGGCTCCGGGAGAGCAAAGCACCGTGTCAGGGCCATGATCCGGGGTGGCC", "normalised bound fraction": "0.378 ratio"}
{"Oligonucleotide": "GAATAGGATTTCTCAATATTCTGTAACACAGAAATTAATTTTTGTGGTCTTTTTGAATGTTACACATTCCTGTTTTTCAAAAAGAACTTACTTGTTTACTTTTACAGTATTCTTTCTGTTATAATTTAATTGTAAATACTCTTCAATTAAAAGCCTTTTTGATACGCCTCTGTAATTGTTATTTATAATAGTT", "normalised bound fraction": "0.439 ratio"}
{"Oligonucleotide": "TACTGAATAATAATTATTAAGCTATATACTTACAGAAAAGAGGATATGAAAATATTAATCAAGTATGACCTCTACTGGTAACTTTTATGCACTGTCAACAAGAGATCTAAGATTTTTATTGAGCTCCTACCATAAAGACACATCATTTCAATTCAACCATCAGTAGCCTCTACTTTTTAAAAAAATATTTTTA", "normalised bound fraction": "0.101 ratio"}
{"Oligonucleotide": "GGAATTCCAACCTGAGATAAGGGCAATAAGTTTACTAGCTATGAGATATTACAGATAACATTTCGTACTGATGCCTCTTTTTGGTATTATGTATATTTATTTTGGTCAGAAATATTGGATGAGTCACTAAATTGCATCATCTCAAGAAATGTTCCTGCATTTACATGTTATCCACTTAGAATTTAAAGTGGAC", "normalised bound fraction": "0.164 ratio"}
{"Oligonucleotide": "CATATAAATGAATATAAATATGAATATGAATACAATCAATAGATAGACATCTGCCATCTTCTTACCACTGCCACCCATCCCAGTGACTTTTTGTAGATTACTCAGACTAAAATGTCATCATAAGATAAAAATCCATCTATATTTCTATTTGGGATCAATACTACAAAATTACTGTTACTTGTCATCCTTTGAT", "normalised bound fraction": "0.00969 ratio"}
{"data": "Block 2", "target": "UBE2V1 UBC core domain (UniProt Q13404)", "technique": "yeast two-hybrid", "sample": "yeast", "setting": "mostly zero background", "reference": "not given", "direction": "higher = stronger interaction", "B1": "RING1 RING domain (UniProt Q06587); chain SPRSLHSELMCPICLDMLKNTMTTKECLHRFCSDCIVTALRSGNKECPTCRKKLVSKRSLR", "B2": "TRIM11 RING domain (UniProt Q96F44); chain LSTNLQEEATCAICLDYFTDPVMTDCGHNFCRECIRRCWGQPEGPYACPECRELSPQRNLRP", "B3": "BFAR RING domain (UniProt Q9NZS9); chain GPQISVSEFSCHCCYDILVNPTTLNCGHSFCRHCLALWWASSKKTECPECREKWEGFPKVS", "B4": "ARIH2 RING domain (UniProt O95376); chain HVPTSHPPHHCAVCMQFVRKENLLSLACQHQFCRSCWEQHCSVLVKDGVGVGVSCMAQDCPLRTPEDFVF", "B5": "RNF186 RING domain (UniProt Q9NXI6); chain HSGSTECDLECLVCREPYSCPRLPKLLACQHAFCAICLKLLLCVQDNTWSITCPLCRKVTAVPGGLI", "B6": "HLTF RING domain (UniProt Q14527); chain LILSSGSDEECAICLDSLTVPVITHCAHVFCKPCICQVIQNEQPHAKCPLCRNDIHEDNLLE", "B7": "MID2 RING domain (UniProt Q9UJV3); chain KMETLESELTCPICLELFEDPLLLPCAHSLCFSCAHRILVSSCSSGESIEPITAFQCPTCRYVISLNHRGL", "Construct (chain)": "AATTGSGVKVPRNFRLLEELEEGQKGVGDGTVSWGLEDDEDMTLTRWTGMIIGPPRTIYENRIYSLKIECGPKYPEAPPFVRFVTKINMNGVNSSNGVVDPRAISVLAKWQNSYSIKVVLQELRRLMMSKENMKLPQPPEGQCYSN"}
{"Sequence": "B1 (RING1 RING domain)", "lacZ reporter activity": 0}
{"Sequence": "B2 (TRIM11 RING domain)", "lacZ reporter activity": 0}
{"Sequence": "ASEEEFQFLRCQQCQAEAKCPKLLPCLHTLCSGCLEASGMQCPICQAPWPLGADTP (PML RING domain (UniProt P29590))", "lacZ reporter activity": 0}
{"Sequence": "EIKEYKARLTCPCCNTRKKDAVLTKCFHVFCFECVRGRYEARQRKCPKCNAAFGAHDFHR (RNF40 RING domain (UniProt O75150))", "lacZ reporter activity": 0}
{"Sequence": "B3 (BFAR RING domain)", "lacZ reporter activity": 0}
{"Sequence": "B4 (ARIH2 RING domain)", "lacZ reporter activity": 0}
{"Sequence": "B5 (RNF186 RING domain)", "lacZ reporter activity": 0}
{"Sequence": "B6 (HLTF RING domain)", "lacZ reporter activity": 0}
{"Sequence": "B7 (MID2 RING domain)", "lacZ reporter activity": 0}
{"Sequence": "ASPKIFQKTKCSICNSALELPSVHFLCGHSFHQHCFESYSESDADCPTCLPENRKVMDMI (VPS11 RING domain (UniProt Q9H270))", "lacZ reporter activity": 0}
{"Sequence": "LEALSSDFLACKICLEQLRAPKTLPCLHTYCQDCLAQLADGGRVRCPECRETVPVPPEGV (TRIM56 RING domain (UniProt Q9BRZ2))", "lacZ reporter activity": 0}
{"data": "Block 3", "target": "Histone acetyltransferase KAT6A, winged helix 1, GST fusion (KAT6A, Homo sapiens, UniProt Q92794, residues 1-85)", "technique": "protein binding microarray", "form": "double-stranded DNA, one strand shown", "sample": "in vitro", "tested at": "not given", "setting": "8-mer, flanks averaged, mean of 2 arrays, mostly near background", "reference": "not given", "direction": "higher = stronger binding", "Construct (chain)": "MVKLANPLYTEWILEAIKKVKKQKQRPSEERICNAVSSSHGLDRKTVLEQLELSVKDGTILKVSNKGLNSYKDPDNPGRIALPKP"}
{"Oligonucleotide": "AAGATTGC", "E-score": -0.00169}
{"Oligonucleotide": "CCCGCGAG", "E-score": 0.353}
{"Oligonucleotide": "GTACCAAA", "E-score": -0.188}
{"Oligonucleotide": "CTCAGAGC", "E-score": -0.0138}
{"Oligonucleotide": "CTCAGAAC", "E-score": -0.00696}
{"Oligonucleotide": "ATGATACC", "E-score": -0.142}
{"Oligonucleotide": "ATACCCAT", "E-score": -0.186}
{"Oligonucleotide": "GTTGTCGA", "E-score": -0.12}
{"Oligonucleotide": "CCATCGAC", "E-score": -0.0894}
{"Oligonucleotide": "TCGACAAA", "E-score": -0.0446}
{"Oligonucleotide": "CTGTGTGC", "E-score": -0.0988}
{"Oligonucleotide": "AGTTATAC", "E-score": 0.0814}
{"Oligonucleotide": "AATTGCCC", "E-score": -0.0229}
{"Oligonucleotide": "GTCTTCTA", "E-score": -0.161}
{"Oligonucleotide": "CGATCGGA", "E-score": 0.165}
{"Oligonucleotide": "AATGATTA", "E-score": -0.19}
{"Oligonucleotide": "CGTGGTCC", "E-score": 0.167}
{"Oligonucleotide": "ATAATAAA", "E-score": -0.02}
{"Oligonucleotide": "CCCTAGGA", "E-score": -0.24}
{"data": "Block 4", "target": "RNA binding protein fox-1 homolog 2, RRM domain, GST-SBP tag (RBFOX2, Homo sapiens, UniProt O43251-10, residues 100-194)", "technique": "RNA Bind-n-Seq", "form": "RNA", "sample": "in vitro", "tested at": "365 nM", "setting": "natural RNA segment, single round, ends assumed", "reference": "no-protein control", "direction": "higher = stronger binding", "shared flanks, not repeated": "GGGAGUUCUACAGUCCGACGAUC … UGGAAUUCUCGGGUGCCAA"}
{"Oligonucleotide": "CAGAAACUGUUCACAAAAGUCAACUAGCUGGCUCAGUUUUGCUGGCUUUGUGUAGAUUUGUGUAGAGCAGGAAAGCCAAGUUCACAGGUUGGGGUGCCUUCAUUUGCAUG", "RBNS enrichment (R)": 2.15}
{"Oligonucleotide": "CCCCUUCGUGUUGCCAUCAUCUUGUUGAAUCAGCCAUUUUAUCGAGGCACGUGAUCAGUGUUGCAACAUAAUGAAAAAGAUGGCUACUGUGCCUUGUGUUACUUAAUCAU", "RBNS enrichment (R)": 0.956}
{"Oligonucleotide": "UUGAACGCUUGCUUUUAGAGAGAAAACAAUAUAGCCCCCUACCCUUUUCCCAAUCCUUUGCCCUCAAAUCAGUGACCCAAGGGAGGGGGGGAUUUAAAGGGAAGGAGUGG", "RBNS enrichment (R)": 4.96}
{"Oligonucleotide": "UUGAUGGAUAAGUUACAGAGUUCUGGAGGAGAACAAGGUGAAAGCCUGGGUGCUGGAGAGGAAGGAAACAGUUAAAGGGUAGUUACUUGGUAUCCACCUUCAUGAUUUUA", "RBNS enrichment (R)": 0.77}
{"Oligonucleotide": "CCCUCCCCCCAGGACCACCCAGGCCCACAUCCACCGGCUUCCUCAGCAGAUGCUGGGGUAUGGCCUCAAGACCUUCCCUCUCUCCUGAAGAUGUCUCAACCCUACAAAGA", "RBNS enrichment (R)": 0.45}
{"Oligonucleotide": "CUGUAUAGCAUGGAAGUCAACUGCAGCCCAUAUCACACCUGGUCCUGGGAAUGUGUCCUCAUCACUUUAAUUGCAGAGUUACUGGGAAAUCAUUGUGCUACUCUGUGGAU", "RBNS enrichment (R)": 0.424}
{"Oligonucleotide": "AGCGAGGUCAACAGAGAAGGCAGGAAUGUGUGGCAGAUUUAGUGAAAGCUAGAGAUAUGGCAGCGAAAGGAUGUAAACAGUGCCUGCUGAAUGAUUUCCAAAGAGAAAAA", "RBNS enrichment (R)": 2.05}
{"Oligonucleotide": "GUGGGGGAUGGAGGGCCCCCACCCCUGCUUCACAGAAUAAUGGGAAGUGACUCUAGUCUUUGUAAGCAAUUUUCAUUCUCAUUAGGAAGUUAAAUGUAGAUUCACAGAUA", "RBNS enrichment (R)": 0.622}
